Assay results of several laboratories.
Protocols differ between the studies behind these lines.

SMILES | test | system | conditions | scale | quantity | value
COc1cc(-c2cncc(-c3ccc(C4CCN([11CH3])CC4)cc3)c2C)cc(OC)c1OC | dynamic PET | Sprague-Dawley rats male, whole brain | intravenous | – | time to peak brain SUV | ≤ 1 min
C[C@]12CC[C@H](OC(=O)NC3CCNCC3)C[C@H]1CC[C@@H]1[C@@H]2CC[C@]2(C)[C@@H](c3ccc(=O)oc3)CC[C@]12O | – | male Sprague-Dawley rats, plasma | intravenous, 5 mg/kg | – | time quantifiable in plasma | ~12 h
CC(C)C[C@H](NC(=O)[C@@H]1CSSC[C@@H]2NC(=O)[C@H](CC(C)C)NC(=O)[C@H](CCC(=O)O)NC(=O)[C@@H](NC(=O)[C@H](CC(=O)O)NC(=O)[C@H](CC(=O)O)NC(=O)[C@@H](N)CC(N)=O)CSSC[C@H](NC(=O)[C@H](C)NC(=O)[C@H](C(C)C)NC(=O)[C@H](CC(N)=O)NC(=O)[C@H](C(C)C)NC2=O)C(=O)N[C@@H]([C@@H](C)O)C(=O)NCC(=O)N1)C(=O)O | GC-C stimulating activity, T84 cell bioassay | anesthetized rat, urine | intravenous infusion, dose not given | reference: start of infusion | time to appearance in urine | ≤ 20 min
[18F]c1ccc2cc(-c3cnc(N4CCOCC4)nc3)[nH]c2c1 | dynamic PET | Sprague-Dawley rats, both sexes, whole brain | intravenous, dose not given | – | time to peak radioactivity | ≤ 5 min
C[C@@H]1CC[C@H]2[C@@H](C)CO[C@@H]3O[C@@]4(C)CC[C@@H]1[C@]32OO4 | – | Sprague-Dawley rat, male, blood | intravenous, 5 mg/kg | – | time to undetectable level | 2 h
OC1CCN(c2ncc(-c3cc4ccc([18F])cc4[nH]3)cn2)CC1 | dynamic PET | Sprague-Dawley rats, both sexes, whole brain | intravenous, dose not given | – | time to peak radioactivity | ≤ 5 min
COc1cc(-c2cncc(-c3ccc(N4CCNCC4)cc3)c2C)cc(OC)c1O[11CH3] | dynamic PET | Sprague-Dawley rats male, whole brain | intravenous | – | time to peak brain SUV | ≤ 1 min
NC(=O)[C@H](Cc1ccccc1)N[11C](=O)OCc1ccccc1 | dynamic PET | Wistar rat, male, brain | intravenous, 13.1 MBq | – | time to maximum uptake | 3 min
